Published values collected from several papers.
± gives the spread as reported.
Organism: Plasmodium falciparum

The EC50 of `COc1ccccc1-n1c(SCC(=O)Nc2ccccc2F)nc2cccnc21` is reported as 273 nM (parasite growth, SYBR Green; 3D7; 72 h).
`c1ccc(COc2ccc(Nc3ncnc4ccc(-c5cccc(N6CCOCC6)c5)cc34)cc2)cc1` has an EC50 of over 15000 nM (parasite growth, SYBR Green fluorescence; W2, drug-resistant).
`Cc1cc(Nc2ccc(Cl)cc2)n2nc(C(F)(F)F)nc2n1` has an EC50 of 1090 ± 330 nM (parasite growth, SYBR Green; 3D7 wild type; 72 h).
`CN1CCN(S(=O)(=O)c2ccc(-c3ccc4ncnc(Nc5ccc(OCc6ccccc6)cc5)c4c3)cc2)CC1` gave an EC50 of 110 nM (parasite growth, SYBR Green fluorescence; W2, drug-resistant).
The selectivity index of `Oc1cccc2c1[nH]c1c(C3=CC4(O)CCC=CCCCCN5CCC3C3(CC6C=CCCCCN6C43)C5)nccc12` (single isomer, unassigned; (+)) is reported as 40 (D6, chloroquine-sensitive; relative to: Vero IC50 over D6 IC50).
With `CC1CCC(C(C)(C)C(=O)Nc2ccc(Oc3ccccc3)cc2)CC1` (stereo not shown) the IC50 was 61 nM (parasite growth, SYBR Green; HB3; blood stage).
With `Fc1cccc(COc2ccc(Nc3ncnc4ccc(-c5cccc(CN6CCOCC6)c5)cc34)cc2Cl)c1` the EC50 was 350 nM (parasite growth, SYBR Green fluorescence; W2, drug-resistant).
`CCN(CC)CCCC(C)Nc1ccnc2cc(Cl)ccc12` (stereo not shown) gave an EC50 of 591 ± 104 nM (parasite growth; Dd2-NITD609).
The EC50 of `CCCN(Cc1nnc(-c2ccco2)o1)C(=O)C1CCCN(C(=O)c2ccc(Cl)cc2)C1` (stereo not shown) is reported as 68.6 ± 49 nM (parasite growth).
The IC50 of `COc1cc2c3cc1Oc1cc(ccc1O)CC1c4c(cc(OC)c(O)c4Oc4ccc(cc4)CC3N(C)CC2)CCN1C` (stereo not shown) is reported as 1460 nM (parasite growth, inhibitor, SYBR Green I; 3D7).
`Cc1nc2c(C#N)cccc2n1-c1ccc(C(=O)NC2CC2)s1` gave an EC50 of 78.7 ± 22 nM (parasite growth).
For `COC(=O)C1=CO[C@@H](C)[C@@H]2Cn3ccc4c5ccccc5nc-4c3C[C@H]12`, the resistance index was 0.1 (growth, [3H]-hypoxanthine uptake; Dd2; 48 h; relative to: Dd2 IC50 over 3D7 IC50).
For `Cc1cc(Cl)ccc1OC(C)C(=O)N1CCc2ccccc21` (stereo not shown), the EC50 was 126 nM (parasite growth, SYBR Green; 3D7).
With `C[C@H]1Cc2c([nH]c3cc(Cl)c(F)cc23)[C@@]2(N1)C(=O)Nc1ccc(Cl)cc12` the EC50 was 1.9 ± 0.2 nM (parasite growth; K1).
`C[C@H](Oc1ccc(C(=O)c2ccc(F)cc2)cc1)C(=O)N1CCc2ccc(C(F)(F)F)cc21` gave an EC50 of 1.8 ± 0.43 nM (parasite growth; Dd2).
`O=C(c1cncc(-c2ccc3ncnc(Nc4ccc(OCc5cccc(F)c5)c(Cl)c4)c3c2)c1)N1CCOCC1` has an EC50 of 630 nM (parasite growth, SYBR Green fluorescence; W2, drug-resistant).
With `CCC1(CC)CC(=O)N(C2CCOc3ccc(C(=O)NC4CC(C)(C)Oc5ccccc54)cc32)C(=N)N1` (stereo not shown) the EC50 was 0.5 nM (parasite growth; Dd2).
For `O=S(=O)(c1ccc(-c2ccc3ncnc(Nc4ccc(OCc5cccc(F)c5)c(Cl)c4)c3c2)cc1)N1CCCCC1`, the EC50 was 180 nM (parasite growth, SYBR Green; D6; blood stage).
With `OC(c1cc(C(F)(F)F)nc2c(C(F)(F)F)cccc12)C1CCCCN1` (stereo not shown) the EC50 was 5 ± 0.9 nM (parasite growth; Dd2-ATV).
For `O=S(=O)(c1cccc(-c2ccc3ncnc(Nc4ccc(OCc5cccc(F)c5)c(Cl)c4)c3c2)c1)N1CCCCC1`, the EC50 was 510 nM (parasite growth, SYBR Green fluorescence; W2, drug-resistant).
The EC50 of `CC(NC(=O)c1cccc(C(c2ccccc2)N2C(=N)NC(C)(C(C)C)CC2=O)c1)c1ccccc1` (stereo not shown) is reported as 12.9 nM (parasite growth; W2Mef).
`Nc1ncnc2c1c(-c1ccc(Oc3ccccc3)cc1)cn2C1CCCC1` has a merozoite invasion of 20% (FVO, purified merozoites, erythrocytes; 50 µM).
With `O=S(=O)(c1cccc(-c2ccc3ncnc(Nc4ccc(OCc5cccc(F)c5)c(Cl)c4)c3c2)c1)N1CCOCC1` the EC50 was 280 nM (parasite growth, SYBR Green; D6; blood stage).
The IC50 of `COCCN(C)C(C)C(=O)NC(Cc1ccc(-c2ccccc2)cc1)B(O)O` (stereo not shown) is reported as 7730 ± 880 nM (compound-selected recrudescent clone 1E9_D2; 72 h).
`COc1ccc2cc1Oc1cc3c(cc1OC)CCN(C)C3Cc1ccc(cc1)Oc1c(O)c(OC)cc3c1C(C2)N(C)CC3` (stereo not shown) gave an IC50 of 78 nM (parasite growth, inhibitor, SYBR Green I; Cam3.1 R539T (MRA-1240)).
`COc1ccccc1-n1ccnc1SCC(=O)Nc1cc(C(F)(F)F)ccc1Cl` gave an EC50 of 681 nM (parasite growth, SYBR Green; 3D7; 72 h).
For `O=S(=O)(c1cccc(-c2ccc3ncnc(Nc4ccc(OCc5cccc(F)c5)c(Cl)c4)c3c2)c1)N1CCCC1`, the EC50 was 300 nM (parasite growth, SYBR Green fluorescence; C235 (TM91C235), drug-resistant).
`O[C@]12C=C(c3nccc4c3[nH]c3ccccc34)[C@@H]3CCN(CCCC/C=C\CC1)C[C@@]31C[C@@H]3/C=C\CCCCN3[C@H]12` has a selectivity index of 47 (D6, chloroquine-sensitive; relative to: Vero IC50 over D6 IC50).

A few entries again:
`COc1ccccc1-n1ccnc1SCC(=O)Nc1cc(C(F)(F)F)ccc1Cl` gave an EC50 of 681 nM (parasite growth, SYBR Green; 3D7; 72 h).
For `O=S(=O)(c1cccc(-c2ccc3ncnc(Nc4ccc(OCc5cccc(F)c5)c(Cl)c4)c3c2)c1)N1CCCC1`, the EC50 was 300 nM (parasite growth, SYBR Green fluorescence; C235 (TM91C235), drug-resistant).
`O[C@]12C=C(c3nccc4c3[nH]c3ccccc34)[C@@H]3CCN(CCCC/C=C\CC1)C[C@@]31C[C@@H]3/C=C\CCCCN3[C@H]12` has a selectivity index of 47 (D6, chloroquine-sensitive; relative to: Vero IC50 over D6 IC50).
